Published values collected from several papers.
Values joined by “and” are separate records of one study, mostly repeats; a detail may differ. ± gives the spread as reported.
GUK1: GUK1 (Homo sapiens, UniProt Q16774)
Sequence of UniProt Q16774 (whole entry, looked up): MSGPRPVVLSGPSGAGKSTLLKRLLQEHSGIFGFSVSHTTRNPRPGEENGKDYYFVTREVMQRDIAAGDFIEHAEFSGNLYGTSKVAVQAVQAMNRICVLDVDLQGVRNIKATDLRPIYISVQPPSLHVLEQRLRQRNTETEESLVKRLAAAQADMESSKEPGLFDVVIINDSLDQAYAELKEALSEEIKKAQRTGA
TOP2A: DNA topoisomerase 2-alpha (TOP2A, Homo sapiens, UniProt P11388)
Sequence of UniProt P11388 (whole entry, looked up): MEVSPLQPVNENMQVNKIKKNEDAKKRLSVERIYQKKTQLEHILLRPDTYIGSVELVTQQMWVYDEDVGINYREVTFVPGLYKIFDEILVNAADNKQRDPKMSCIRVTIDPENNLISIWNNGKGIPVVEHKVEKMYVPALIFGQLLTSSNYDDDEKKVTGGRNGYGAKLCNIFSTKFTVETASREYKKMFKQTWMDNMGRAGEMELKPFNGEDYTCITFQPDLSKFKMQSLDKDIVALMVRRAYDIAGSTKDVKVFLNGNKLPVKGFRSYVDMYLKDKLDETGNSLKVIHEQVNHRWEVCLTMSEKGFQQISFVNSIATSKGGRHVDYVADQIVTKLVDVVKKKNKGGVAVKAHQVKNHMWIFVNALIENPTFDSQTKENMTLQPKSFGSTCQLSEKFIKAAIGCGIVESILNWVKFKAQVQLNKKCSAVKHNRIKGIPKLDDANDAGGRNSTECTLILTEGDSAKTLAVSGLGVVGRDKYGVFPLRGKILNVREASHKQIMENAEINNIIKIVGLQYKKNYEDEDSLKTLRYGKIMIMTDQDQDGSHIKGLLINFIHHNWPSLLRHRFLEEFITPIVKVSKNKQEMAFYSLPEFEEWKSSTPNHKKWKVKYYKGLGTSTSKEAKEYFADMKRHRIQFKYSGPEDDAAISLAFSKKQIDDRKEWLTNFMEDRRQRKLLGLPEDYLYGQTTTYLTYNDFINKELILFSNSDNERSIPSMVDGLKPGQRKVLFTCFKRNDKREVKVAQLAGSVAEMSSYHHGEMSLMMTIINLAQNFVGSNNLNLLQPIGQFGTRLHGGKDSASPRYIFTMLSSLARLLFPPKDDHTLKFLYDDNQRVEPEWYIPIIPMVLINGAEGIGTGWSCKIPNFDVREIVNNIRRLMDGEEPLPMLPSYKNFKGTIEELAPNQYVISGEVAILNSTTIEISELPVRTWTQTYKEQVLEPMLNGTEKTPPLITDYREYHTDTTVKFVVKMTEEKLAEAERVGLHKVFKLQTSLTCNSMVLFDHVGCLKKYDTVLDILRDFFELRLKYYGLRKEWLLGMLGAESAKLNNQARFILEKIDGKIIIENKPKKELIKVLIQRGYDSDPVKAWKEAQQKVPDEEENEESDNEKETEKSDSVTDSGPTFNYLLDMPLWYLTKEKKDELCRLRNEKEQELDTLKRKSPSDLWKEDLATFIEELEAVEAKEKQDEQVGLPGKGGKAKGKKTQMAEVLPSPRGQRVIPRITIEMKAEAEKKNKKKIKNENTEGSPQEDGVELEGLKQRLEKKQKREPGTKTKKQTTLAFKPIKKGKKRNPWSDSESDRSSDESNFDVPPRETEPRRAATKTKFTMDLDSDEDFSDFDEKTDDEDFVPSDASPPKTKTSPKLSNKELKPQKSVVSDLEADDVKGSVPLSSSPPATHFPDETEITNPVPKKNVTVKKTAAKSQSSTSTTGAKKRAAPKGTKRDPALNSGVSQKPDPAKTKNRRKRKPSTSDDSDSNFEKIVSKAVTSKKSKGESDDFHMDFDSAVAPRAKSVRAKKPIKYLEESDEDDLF
Sequence of UniProt O00482 (whole entry, looked up): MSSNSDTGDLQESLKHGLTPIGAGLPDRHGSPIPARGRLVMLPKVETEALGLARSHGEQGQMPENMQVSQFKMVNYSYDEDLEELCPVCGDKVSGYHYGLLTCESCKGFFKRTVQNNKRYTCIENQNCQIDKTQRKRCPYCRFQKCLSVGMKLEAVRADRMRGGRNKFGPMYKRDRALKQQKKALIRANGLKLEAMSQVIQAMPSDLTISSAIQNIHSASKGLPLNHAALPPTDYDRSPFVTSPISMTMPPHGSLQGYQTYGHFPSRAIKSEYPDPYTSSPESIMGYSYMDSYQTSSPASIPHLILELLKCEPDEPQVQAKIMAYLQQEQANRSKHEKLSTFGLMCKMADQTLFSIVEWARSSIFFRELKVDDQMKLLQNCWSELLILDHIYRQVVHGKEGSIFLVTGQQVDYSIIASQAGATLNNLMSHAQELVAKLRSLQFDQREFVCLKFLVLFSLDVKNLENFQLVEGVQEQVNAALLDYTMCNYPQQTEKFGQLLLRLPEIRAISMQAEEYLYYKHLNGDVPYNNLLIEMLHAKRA
Sequence of UniProt Q15059 (whole entry, unmodified, looked up): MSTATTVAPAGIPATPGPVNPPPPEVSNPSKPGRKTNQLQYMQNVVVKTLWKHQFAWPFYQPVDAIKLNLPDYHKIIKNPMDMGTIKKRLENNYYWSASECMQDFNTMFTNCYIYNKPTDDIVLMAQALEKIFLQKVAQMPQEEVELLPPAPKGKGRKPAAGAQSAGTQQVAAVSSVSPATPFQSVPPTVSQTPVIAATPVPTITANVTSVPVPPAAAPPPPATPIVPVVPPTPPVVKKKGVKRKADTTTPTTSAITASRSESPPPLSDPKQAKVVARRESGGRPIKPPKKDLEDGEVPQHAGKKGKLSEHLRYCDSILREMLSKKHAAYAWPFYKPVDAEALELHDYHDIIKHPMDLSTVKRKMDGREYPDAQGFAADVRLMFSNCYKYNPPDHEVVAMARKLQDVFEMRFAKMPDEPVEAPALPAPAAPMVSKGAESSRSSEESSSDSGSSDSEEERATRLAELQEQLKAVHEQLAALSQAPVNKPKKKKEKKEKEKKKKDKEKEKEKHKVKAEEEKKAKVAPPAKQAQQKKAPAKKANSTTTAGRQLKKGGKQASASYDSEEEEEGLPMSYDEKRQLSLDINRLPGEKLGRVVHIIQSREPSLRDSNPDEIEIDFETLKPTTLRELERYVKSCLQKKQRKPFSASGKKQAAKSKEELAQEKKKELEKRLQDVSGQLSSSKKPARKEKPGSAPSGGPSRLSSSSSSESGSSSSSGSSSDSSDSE
Sequence of UniProt P10721 (whole entry, unmodified, looked up): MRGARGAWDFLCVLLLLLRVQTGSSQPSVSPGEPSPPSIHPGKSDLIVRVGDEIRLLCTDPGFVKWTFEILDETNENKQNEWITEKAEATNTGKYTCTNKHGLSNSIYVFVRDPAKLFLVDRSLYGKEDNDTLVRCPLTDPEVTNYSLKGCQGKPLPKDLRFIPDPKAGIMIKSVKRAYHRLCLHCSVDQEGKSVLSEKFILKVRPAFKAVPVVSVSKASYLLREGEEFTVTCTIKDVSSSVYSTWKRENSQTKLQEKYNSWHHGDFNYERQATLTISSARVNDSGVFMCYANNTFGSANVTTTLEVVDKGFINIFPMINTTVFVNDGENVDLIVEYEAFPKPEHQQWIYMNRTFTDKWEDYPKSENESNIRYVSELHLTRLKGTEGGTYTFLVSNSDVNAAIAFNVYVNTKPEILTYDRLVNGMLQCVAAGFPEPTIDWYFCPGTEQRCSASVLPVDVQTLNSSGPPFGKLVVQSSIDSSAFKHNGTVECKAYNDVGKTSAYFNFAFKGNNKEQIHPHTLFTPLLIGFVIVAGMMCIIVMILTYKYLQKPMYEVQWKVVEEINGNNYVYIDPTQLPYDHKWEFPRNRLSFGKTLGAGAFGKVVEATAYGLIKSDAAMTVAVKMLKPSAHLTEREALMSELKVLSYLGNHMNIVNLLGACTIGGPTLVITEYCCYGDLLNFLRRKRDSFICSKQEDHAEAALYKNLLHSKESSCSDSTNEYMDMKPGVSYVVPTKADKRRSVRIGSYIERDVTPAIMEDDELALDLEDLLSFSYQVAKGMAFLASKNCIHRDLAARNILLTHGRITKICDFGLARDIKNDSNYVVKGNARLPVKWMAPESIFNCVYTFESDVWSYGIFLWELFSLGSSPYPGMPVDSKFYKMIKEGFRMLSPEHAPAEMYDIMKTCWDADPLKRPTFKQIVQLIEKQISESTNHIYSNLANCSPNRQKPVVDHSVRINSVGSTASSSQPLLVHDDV
Sequence of UniProt Q62351 (whole entry, looked up): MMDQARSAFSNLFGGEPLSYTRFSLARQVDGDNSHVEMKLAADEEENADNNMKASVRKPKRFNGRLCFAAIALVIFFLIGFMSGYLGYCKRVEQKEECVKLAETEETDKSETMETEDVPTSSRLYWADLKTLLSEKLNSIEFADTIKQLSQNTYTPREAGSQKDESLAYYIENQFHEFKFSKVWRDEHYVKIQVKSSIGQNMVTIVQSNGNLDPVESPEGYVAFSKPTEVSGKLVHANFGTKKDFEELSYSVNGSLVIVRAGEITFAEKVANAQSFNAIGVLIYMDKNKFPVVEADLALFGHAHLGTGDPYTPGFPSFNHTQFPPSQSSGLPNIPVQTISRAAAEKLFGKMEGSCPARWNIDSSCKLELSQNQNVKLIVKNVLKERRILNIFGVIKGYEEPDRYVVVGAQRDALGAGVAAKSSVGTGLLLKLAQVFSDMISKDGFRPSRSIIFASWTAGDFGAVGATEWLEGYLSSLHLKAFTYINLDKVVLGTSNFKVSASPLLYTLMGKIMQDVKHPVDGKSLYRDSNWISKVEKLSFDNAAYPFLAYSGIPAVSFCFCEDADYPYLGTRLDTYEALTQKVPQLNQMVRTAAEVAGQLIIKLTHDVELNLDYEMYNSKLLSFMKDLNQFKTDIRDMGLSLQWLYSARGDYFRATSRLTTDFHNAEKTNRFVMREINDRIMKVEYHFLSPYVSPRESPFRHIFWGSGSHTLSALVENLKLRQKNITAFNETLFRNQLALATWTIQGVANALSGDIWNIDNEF
Sequence of UniProt P42330 (whole entry, looked up): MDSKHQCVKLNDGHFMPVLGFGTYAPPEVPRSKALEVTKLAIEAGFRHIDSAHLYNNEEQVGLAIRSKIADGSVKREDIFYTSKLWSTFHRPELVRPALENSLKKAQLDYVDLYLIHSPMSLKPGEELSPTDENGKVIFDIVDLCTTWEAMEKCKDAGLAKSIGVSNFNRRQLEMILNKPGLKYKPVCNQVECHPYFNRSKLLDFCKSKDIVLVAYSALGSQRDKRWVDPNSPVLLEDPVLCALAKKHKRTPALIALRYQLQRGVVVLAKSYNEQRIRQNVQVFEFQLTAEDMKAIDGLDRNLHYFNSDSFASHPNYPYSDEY

For Cc1ncsc1-c1ccc(CNC(=O)[C@@H]2C[C@@H](O)CN2C(=O)[C@@H](NC(=O)CCCCCCCCCCCC(=O)NCCCCC#Cc2cccc(-c3nn(-c4nc(C(=O)O)cs4)c(CC4CC4)c3Cc3ccc(S(N)(=O)=O)cc3)c2)C(C)(C)C)cc1, “time to maximal degradation” read 48 h (LDHA (Homo sapiens, UniProt P00338); degrader, western blot; PANC-1; 1 µM).
CCC(C)(NCCc1ccc(C(F)(F)F)cc1Cl)c1cccc(NC2=CC(=O)N(C3CCC(=O)NC3=O)C2=O)c1 (stereo not shown) has a Dmax of 57% (ZBTB11/CRBN (Homo sapiens, UniProt O95625+Q96SW2); protein degradation, degrader, HiBiT luminescence; MOLT-4).
[2H]c1cc(C)c(NC(=O)c2cnc(Nc3cc(N4CCCCC4)nc(C)n3)s2)c(Cl)c1 gave an inhibition of 30 to 90% (KIT (Homo sapiens, UniProt P10721, D816Y); 0.01 µM).
c1ccc(-c2n[nH]cc2-c2ccnc3ccccc23)nc1: “log2 fold change” 1.53 (Negative regulator of the PHO system (PHO85, Candida albicans, UniProt Q9HGY5); kinase binding, competitor, MIB/MS competition, measured: PHO85; Candida albicans cell lysate; 10 µM; baseline: DMSO).
O=c1c2ccccc2c(Cc2ccc(Cl)cc2)nn1C1CCCNCC1 (stereo not shown): “inward current density” -2.5 ± 1.1 pA/pF (CatSper channel complex (Homo sapiens, UniProt Q7RTX7+Q86XQ3+Q8NEC5+Q96P56); ion current, whole-cell patch clamp; human sperm; 10 µM, at -80 mV).
For CCOC(=O)[C@](CC)(CCCS(=O)(=O)CCOCCOCCNC(=O)OC(C)(C)C)NC(=O)c1ccc(C2CC2)c(Cc2ccc(F)cc2)n1, the Ki ratio was 4 (CNR2 (Homo sapiens, UniProt P34972); radioligand binding; baseline: CB1 over CB2 (human)).
With N#CSCCCCOc1ccc2c(-c3ccccc3)cc(=O)oc2c1 the selectivity ratio was over 427 (CA12 (Homo sapiens, UniProt O43570); stopped-flow CO2 hydration; baseline: Ki CA II over Ki CA XII).
COc1cc(-c2cncc3c2CN(C)Cc2cc(N4CCNCC4)ccc2-3)cc(OC)c1OC has a remaining activity of 89% (KIT (Homo sapiens, UniProt P10721, V654A); kinase activity; 1 µM, added: ATP 10 µM; baseline: DMSO control).
O=S(=O)(O)O has a reaction velocity of 0.146 µM/s and 0.125 µM/s and 0.122 µM/s (GUK1; enzyme activity, NADH-coupled; 1 mM, added: ATP 1000 µM).
The relaxed DNA of O=c1nc(SCc2cc(F)cc(C(F)(F)F)c2)nc(SCc2ccc3sccc3c2)[nH]1 is reported as 6.1% (TOP2A; DNA relaxation; 31.25 µM, replicate 1).
With C=CC(=O)N1CCC[C@@H](n2nc(-c3ccc(Oc4ccccc4)cc3)c3c(N)ncnc32)C1 the remaining activity was 110% (SYK (Homo sapiens, UniProt P43405); 1 µM).
Nc1nc2c(ncn2[C@@H]2O[C@H](COP(=O)(O)OP(=O)(O)O)[C@@H](O)[C@H]2O)c(=O)[nH]1 — result for “bound nucleotide per protein”: about 0.9 (Elongation factor Tu, chloroplastic (TUFA, Arabidopsis thaliana, UniProt P17745); HPLC; 100 µM, 60 min, 25 °C, loaded, added: MgCl2 10 mM, DTT 10 mM).
For N=C(N)NCCC[C@@H](NC(=O)CCOCCOCCNC(=O)[C@H](CCCCNC(=O)CC[C@H](NC(=O)c1ccc(NCc2cnc3nc(N)[nH]c(=O)c3n2)cc1)C(=O)O)NC(=O)CO/N=C/[C@H](F)[C@@H](O)[C@H](O)[C@H](O)CO)C(=O)NCC(=O)N[C@H](CC(=O)O)C(N)=O [fluorine-18 labelled], “intact radiotracer remaining” read over 80% (radio-HPLC; human plasma; 2.5 h, 37 °C).
With O=C(O)c1ccc(Nc2ncc3c(n2)-c2ccc(Cl)cc2C(c2c(F)cccc2F)=NC3)cc1 the remaining activity was 114% (human PASK(h); kinase activity; 1 µM).
For COc1ccccc1N1CCN(C(=O)c2cccc(S(=O)(=O)n3cncn3)c2)CC1, “probe labelling blockade” read “inactive” (AKR1C3 (Homo sapiens, UniProt P42330); competitive gel-based ABPP; HEK-293T expressing AKR1C3; concentration not given, 5-120 min).
O=c1nc(SCc2cc(F)cc(C(F)(F)F)c2)nc(SCc2ccc3nc(Cl)ccc3c2)[nH]1 — result for “mean relaxed DNA”: 99.3% (TOP2A; DNA relaxation; 15.6 µM).
The Kd of O=C(O)CCc1cnn(-c2ccccc2)c1 is reported as over 1000 µM (Ubiquitin carboxyl-terminal hydrolase 20, ZnF-UBD domain (USP20, Homo sapiens, UniProt Q9Y2K6)).
With COc1cc(C(=O)NS(=O)(=O)c2ccccc2C)ccc1Cc1cn(C)c2ccc(NC(=O)OC3CCCC3)cc12 the Hill coefficient was 1.78 (LRRC8A/LRRC8C (Homo sapiens, UniProt Q8IWT6+Q8TDW0, Y124F/Y126F); whole-cell patch clamp; HCT116 LRRC8-/- transfected; at -100 mV).
Under “z-scored log2 fold change”, OC[C@H]1O[C@H](OC[C@H]2OC(O)[C@H](O)[C@@H](O)[C@@H]2O)[C@H](O)[C@@H](O)[C@@H]1O (stereo partly shown) is recorded as 0.192 (binding, equilibrium dialysis LC-MS; 5 µM, thermostabilized A2AR-BRIL construct; baseline: no-protein control, direction not given).
COc1cc(-c2cc(C(C)=O)n3ccccc23)cc(OC)c1Cn1ccnc1 has a ΔTm of 4.8 °C (Bromodomain-containing protein 3, BD2 (BRD3, Homo sapiens, UniProt Q15059)).
With C[C@H](N)C(=O)Nc1ccc2ccccc2c1 the Km was 10 µM (rat neuron-specific aminopeptidase; substrate).
NCCCCC(=O)O — result for “normalised MST signal”: -0.0708 (SLC6A6 (Homo sapiens, UniProt P31641, G62A); binding, microscale thermophoresis; 7.81 µM, room temperature, added: 50 nM labelled protein; higher = more binding).
Under “probe-enriched protein abundance”, O=C(CCCc1ccccc1)C(=O)NCCc1ccc(Oc2ccc(C(F)(F)F)cn2)cc1 is recorded as 252000 a.u. (PREP (Homo sapiens, UniProt P48147); inhibitor, FP-biotin chemoproteomics, measured: PPCE; HepG2; concentration not given; baseline: DMSO, lower = stronger inhibition).
O=C(O)Cc1cccc2cccnc12 gave a Kd of over 1000 µM (Ubiquitin carboxyl-terminal hydrolase 39, ZnF-UBD domain (Homo sapiens, UniProt Q53GS9)).
The protein adduct of CCC1(O)CCCN(C(=O)c2ccc(-c3ccc(F)c(NC(=O)CCl)c3)cc2)C1 (stereo not shown) is reported as 81% (DNA dC->dU-editing enzyme APOBEC-3A (Homo sapiens, UniProt P31941); covalent modifier, intact protein mass spectrometry, measured: adduct +26309 Da; 250 µM, 3 h, 10-fold molar excess).
For NCCOP(=O)(O)OP(=O)(O)OC[C@H]1O[C@@H](n2ccc(N)nc2=O)[C@H](O)[C@@H]1O, “z-scored log2 fold change” read 0.109 (binding, equilibrium dialysis LC-MS; 5 µM, thermostabilized A2AR-BRIL construct; baseline: no-protein control, direction not given).
CCC(=O)NS(=O)(=O)c1ccc(-c2c(-c3ccccc3)noc2C)cc1 has an activation of 0.39 fold (NR5A2 (Homo sapiens, UniProt O00482); reporter gene, Gal4 hybrid reporter; 50 µM; baseline: vehicle).
With Nc1nc2c(ncn2[C@@H]2O[C@H](COP(=O)(O)O)[C@@H](O)[C@H]2O)c(=O)[nH]1 the reaction velocity was 0.0727 µM/s and 0.0663 µM/s and 0.0723 µM/s (GUK1; enzyme activity, NADH-coupled; 1000 µM, added: KCl 150 mM).
Under “V∞/Vmax ratio (b)”, OC[C@H]1OC(O)[C@H](O)[C@@H](O)[C@@H]1O (stereo partly shown) is recorded as 0.36 ± 0.03 (Hexokinase-3 (HK3, Homo sapiens, UniProt P52790, R480W); substrate inhibition; mutant R480W, partial substrate inhibition model, added: ATP 20 mM).
Cc1nnc2n1-c1sc(C#Cc3cnn(C4(CCN5CCN(C)CC5)CN(c5cccc6c5C(=O)N(C5CCC(=O)NC5=O)C6=O)C4)c3)c(Cc3ccccc3)c1COC2 (stereo not shown): protein level “no effect” (BRD3 (Homo sapiens, UniProt Q15059); degrader, western blot; SCID mouse MV4-11 xenograft, tumour; intraperitoneal, 20 mg/kg single dose).
For C=C1CN(S(=O)(=O)c2ccc(C)cc2)CCCN(Cc2ccccc2)CCCN(S(=O)(=O)c2ccc(C)cc2)C1, the FLuc/RLuc ratio was 1.07 (Protein transport protein Sec61 subunit alpha isoform 1 (Homo sapiens, UniProt P61619); measured: control signal peptide-FLuc reporter; HEK293; 0.04 mM, 6 h).
With C=CC(=O)N1CCC(COCC(=O)N2CCN(c3nc(-c4cnc(N)nc4C(F)F)nc(N4CCOC[C@@H]4C)n3)CC2)CC1 the remaining binding was 29% (Macrophage colony-stimulating factor 1 receptor, autoinhibited (CSF1R, Homo sapiens, UniProt P07333); KINOMEscan; 1 µM).
CCOC(=O)N1CCC(CN(Cc2ccc(Cl)cc2)Cc2ccc([N+](=O)[O-])s2)C1 (stereo not shown) has a melting temperature of 50.7 ± 0.3 °C (NR1D1 (Homo sapiens, UniProt P20393); circular dichroism melt; saturating ligand).
For CC[C@@H](C)[C@@H](NC(=O)[C@@H](Cc1ccc(O)cc1)NC(=O)[C@H]1CCCN1C(=O)[C@@H](CCCNC(=N)N)NC(=O)[C@H](N)Cc1c[nH]cn1)C(=O)N[C@H](C)C(=O)N[C@H](Cc1c[nH]cn1)C(=O)N[C@H](CCCNC(=N)N)C(=O)N[C@@H](C(=O)N[C@H](Cc1ccc(O)cc1)C(=O)N[C@H](CO)C(=O)N[C@H](Cc1ccccc1)C(N)=O)C(C)C, the surface expression was 0.955 and 0.967 (Transferrin receptor protein 1 (Tfrc, Mus musculus, UniProt Q62351); flow cytometry; RAW264.7; 2 h, pH 7.4, unit not given; baseline: 0 h).
For CCCCC[C@H](O)/C=C/[C@H]1[C@H](O)CC(=O)[C@@H]1C/C=C\CCCC(=O)O, the Emax was 84.1 ± 7.38% (PTGER1 (Homo sapiens, UniProt P34995, H88A); IP1 accumulation, agonist; AD293; 1 h, EP1 H88A mutant).
With Nc1ncnc2c1ncn2[C@@H]1O[C@H](COP(=O)(O)CP(=O)(O)OP(=O)(O)O)[C@@H](O)[C@H]1O the calcium influx was 0% (P2X purinoceptor 1 (P2RX1, Homo sapiens, UniProt P51575, E122A); calcium influx; 100 nM; baseline: ionomycin response).
With CC[C@@H]1[C@H](F)C(=O)N[C@@H]1COc1nccc2cc(C(N)=O)c(OC)cc12 the inhibition was -5.9% (STK24 (Homo sapiens, UniProt Q9Y6E0); ATP-site probe binding, ActivX profiling, measured: MST3; THP-1 cell lysate; 0.2 mM, Lys1 site).

For quick reference, copied from above:
COc1cc(-c2cc(C(C)=O)n3ccccc23)cc(OC)c1Cn1ccnc1 has a ΔTm of 4.8 °C (Bromodomain-containing protein 3, BD2 (BRD3, Homo sapiens, UniProt Q15059)).
With N#CSCCCCOc1ccc2c(-c3ccccc3)cc(=O)oc2c1 the selectivity ratio was over 427 (CA12 (Homo sapiens, UniProt O43570); stopped-flow CO2 hydration; baseline: Ki CA II over Ki CA XII).
The relaxed DNA of O=c1nc(SCc2cc(F)cc(C(F)(F)F)c2)nc(SCc2ccc3sccc3c2)[nH]1 is reported as 6.1% (TOP2A; DNA relaxation; 31.25 µM, replicate 1).
